Published values collected from several papers.
Each line is one published result; not all experiments were run side by side. ± marks the error that the study gave. Values after ≈ are worked out from the molar mass of the structure shown.

CCCCCCCCCCCCCCCC(=O)NCCCC[C@H](NC(=O)CNC(=O)[C@H](CO)NC(=O)CNC(=O)[C@H](CCC(N)=O)NC(=O)[C@H](Cc1c[nH]cn1)NC(=O)[C@H](Cc1c[nH]c2ccccc12)NC(=O)[C@H](CC(N)=O)NC(=O)CNC(=O)[C@@H](NC(=O)[C@H](CO)NC(=O)[C@H](CC(=O)O)NC(=O)[C@H](CC(C)C)NC(=O)[C@@H](NC(=O)[C@H](CCCCN)NC(=O)[C@H](CC(N)=O)NC(=O)[C@H](CO)NC(=O)[C@H](CCCNC(=N)N)NC(=O)[C@H](CCCNC(=N)N)NC(=O)[C@@H](NC(=O)[C@H](Cc1c[nH]c2ccccc12)NC(=O)[C@H](CCC(=O)O)NC(=O)[C@H](CCCCN)NC(=O)[C@H](CO)NC(=O)[C@H](CCC(=O)O)NC(=O)[C@H](CCC(=O)O)NC(=O)[C@H](CC(C)C)NC(=O)[C@H](CC(=O)O)NC(=O)[C@H](CO)NC(=O)[C@H](CCCCN)NC(=O)[C@@H](NC(=O)[C@H](CCCCN)NC(=O)[C@H](CC(N)=O)NC(=O)[C@H](CC(C)C)NC(=O)[C@@H](NC(=O)[C@@H](NC(=O)[C@H](CO)NC(=O)[C@@H](NC(=O)[C@H](CC(=O)O)NC(=O)[C@@H](N)[C@@H](C)CC)[C@@H](C)CC)[C@@H](C)CC)C(C)C)[C@@H](C)CC)[C@@H](C)CC)[C@@H](C)CC)[C@@H](C)CC)C(=O)O gave a solubility of 70 ± 20 µg/mL (≈ 14.4 µM) (PBS).
Cc1cn(CC(=O)N(CCNC(=O)CN(CCNC(=O)CN(CCNC(=O)CN(CCNC(=O)CN(CCNC(=O)CN(CCNC(=O)CN(CCNC(=O)CN(CCNC(=O)CN(CCNC(=O)CN(CCNC(=O)COCCOCCNC(=O)COCCOCCNC(=O)[C@H](CNC(=O)[C@H](CNC(=O)[C@H](CNC(=O)[C@H](CNC(=O)COCCOCCNC(=O)CN2CCN(CC(=O)O)CCN(CC(=O)O)CCN(CC(=O)O)CC2)NC(=O)COCCOCCNC(=O)CN2CCN(CC(=O)O)CCN(CC(=O)O)CCN(CC(=O)O)CC2)NC(=O)[C@H](CNC(=O)COCCOCCNC(=O)CN2CCN(CC(=O)O)CCN(CC(=O)O)CCN(CC(=O)O)CC2)NC(=O)COCCOCCNC(=O)CN2CCN(CC(=O)O)CCN(CC(=O)O)CCN(CC(=O)O)CC2)NC(=O)[C@H](CNC(=O)[C@H](CNC(=O)COCCOCCNC(=O)CN2CCN(CC(=O)O)CCN(CC(=O)O)CCN(CC(=O)O)CC2)NC(=O)COCCOCCNC(=O)CN2CCN(CC(=O)O)CCN(CC(=O)O)CCN(CC(=O)O)CC2)NC(=O)[C@H](CNC(=O)COCCOCCNC(=O)CN2CCN(CC(=O)O)CCN(CC(=O)O)CCN(CC(=O)O)CC2)NC(=O)COCCOCCNC(=O)CN2CCN(CC(=O)O)CCN(CC(=O)O)CCN(CC(=O)O)CC2)NC(=O)[C@H](CNC(=O)[C@H](CNC(=O)[C@H](CNC(=O)COCCOCCNC(=O)CN2CCN(CC(=O)O)CCN(CC(=O)O)CCN(CC(=O)O)CC2)NC(=O)COCCOCCNC(=O)CN2CCN(CC(=O)O)CCN(CC(=O)O)CCN(CC(=O)O)CC2)NC(=O)[C@H](CNC(=O)COCCOCCNC(=O)CN2CCN(CC(=O)O)CCN(CC(=O)O)CCN(CC(=O)O)CC2)NC(=O)COCCOCCNC(=O)CN2CCN(CC(=O)O)CCN(CC(=O)O)CCN(CC(=O)O)CC2)NC(=O)[C@H](CNC(=O)[C@H](CNC(=O)COCCOCCNC(=O)CN2CCN(CC(=O)O)CCN(CC(=O)O)CCN(CC(=O)O)CC2)NC(=O)COCCOCCNC(=O)CN2CCN(CC(=O)O)CCN(CC(=O)O)CCN(CC(=O)O)CC2)NC(=O)[C@H](CNC(=O)COCCOCCNC(=O)CN2CCN(CC(=O)O)CCN(CC(=O)O)CCN(CC(=O)O)CC2)NC(=O)COCCOCCNC(=O)CN2CCN(CC(=O)O)CCN(CC(=O)O)CCN(CC(=O)O)CC2)C(=O)Cn2cnc3c(=O)[nH]c(N)nc32)C(=O)Cn2ccc(N)nc2=O)C(=O)Cn2ccc(N)nc2=O)C(=O)Cn2cnc3c(N)ncnc32)C(=O)Cn2cc(C)c(=O)[nH]c2=O)C(=O)Cn2ccc(N)nc2=O)C(=O)Cn2cnc3c(N)ncnc32)C(=O)Cn2cnc3c(=O)[nH]c(N)nc32)C(=O)Cn2ccc(N)nc2=O)CC(=O)NCCN(CC(=O)NCCN(CC(=O)NCCOCCOCC(=O)N[C@@H]2CSSC[C@H](C(N)=O)NC(=O)[C@@H](CCCCN)NC(=O)[C@@H](CO)NC2=O)C(=O)Cn2ccc(N)nc2=O)C(=O)Cn2ccc(N)nc2=O)c(=O)[nH]c1=O gave an intact probe of > 99% (radio-HPLC; mouse, ASPC1 xenograft, urine; intravenous, 3.5 h; relative to: urine radioactivity).
For CCCCCCCCCCCCCCCC(=O)NCCCC[C@H](NC(=O)CNC(=O)[C@H](CO)NC(=O)CNC(=O)[C@@H](NC(=O)[C@H](CO)NC(=O)[C@H](CC(=O)O)NC(=O)[C@H](CC(C)C)NC(=O)[C@@H](NC(=O)[C@H](CCCCN)NC(=O)[C@H](CC(N)=O)NC(=O)[C@H](CO)NC(=O)[C@H](CCCNC(=N)N)NC(=O)[C@H](CCCNC(=N)N)NC(=O)[C@@H](NC(=O)[C@H](Cc1c[nH]c2ccccc12)NC(=O)[C@H](CCC(=O)O)NC(=O)[C@H](CCCCN)NC(=O)[C@H](CO)NC(=O)[C@H](CCC(=O)O)NC(=O)[C@H](CCC(=O)O)NC(=O)[C@H](CC(C)C)NC(=O)[C@H](CC(=O)O)NC(=O)[C@H](CO)NC(=O)[C@H](CCCCN)NC(=O)[C@@H](NC(=O)[C@H](CCCCN)NC(=O)[C@H](CC(N)=O)NC(=O)[C@H](CC(C)C)NC(=O)[C@@H](NC(=O)[C@@H](NC(=O)[C@H](CO)NC(=O)[C@@H](NC(=O)[C@H](CC(=O)O)NC(=O)[C@@H](NC(=O)[C@@H]1CCCN1C(=O)[C@H](CC(=O)O)NC(=O)[C@H](CC(C)C)NC(=O)[C@H](C)NC(=O)[C@@H](N)C(C)C)[C@@H](C)CC)[C@@H](C)CC)[C@@H](C)CC)C(C)C)[C@@H](C)CC)[C@@H](C)CC)[C@@H](C)CC)[C@@H](C)CC)C(=O)O, the solubility was 20300 ± 1400 µg/mL (≈ 4290 µM) (water).
The half-life of Cc1cc(N(CCOS(C)(=O)=O)CCOS(C)(=O)=O)ccc1C(=O)O is reported as 0.917 h (mouse, plasma; iv, 20 mg/kg).
For C[C@H](Cc1ccc(O)c(O)c1)[C@@H](C)Cc1ccc(O)c(O)c1, “total amount delivered” read 31.3 ± 2.47 µg (human skin; 5% w/v solution, 24 h).
The Cmax of O=C(Nc1ccccc1)c1cc([N+](=O)[O-])ccc1Cl is reported as 127 ng/mL (LC-MS/MS; Sprague-Dawley rat, male, plasma; intravenous, 2.5 mg/kg).
The terminal half-life of CC[C@@H](C(N)=O)N1CCCC1=O is reported as 3.03 h (LC-MS/MS; rat, control, whole blood; intramuscular, 50 mg/kg levetiracetam, added: atropine 5 mg/kg).
CC(C)C[C@H](NC(=O)[C@@H]1C[C@@H](O)CN1C(=O)[C@H](Cc1ccccc1)NC(=O)[C@H](CO)NC(=O)[C@H](C)NC(=O)[C@H](Cc1ccccc1)NC(=O)[C@@H](NC(=O)[C@H](CCC(=O)O)NC(=O)[C@H](Cc1c[nH]cn1)NC(=O)[C@@H](NC(=O)[C@@H](NC(=O)[C@H](CCC(N)=O)NC(=O)[C@H](C)NC(=O)[C@@H](N)CC(=O)O)[C@@H](C)O)C(C)C)C(C)C)C(=O)N[C@@H](CC(=O)O)C(=O)N[C@@H](CO)C(=O)N[C@@H](CC(=O)O)C(=O)NCC(=O)N[C@H]1CSSC[C@@H](C(=O)N[C@@H](Cc2c[nH]c3ccccc23)C(=O)N[C@@H](CC(N)=O)C(=O)N2CCC[C@H]2C(=O)N[C@@H](C)C(=O)N[C@H]2CSSC[C@@H](C(N)=O)NC(=O)[C@H](Cc3ccc(O)cc3)NC(=O)[C@H](Cc3c[nH]cn3)NC(=O)[C@H](CCCCN)NC(=O)CNC2=O)NC1=O: “degradation to non-isomer products” 22 ± 0.62% (RP-HPLC; mouse serum 25%; 50 µM, 6 h, 37 °C).
C=C(C)[C@@H]1[C@H]2OC(=O)[C@@H]1[C@]1(O)C[C@H]3O[C@]34C(=O)O[C@H]2[C@]14C — result for “peak brain concentration”: 351 ± 106 nM (male NIH-NCI Swiss mice, brain; intraperitoneal, 2 mg/kg, 20 min).
With CCC(C)C(CC)C(N)=O (stereo not drawn) the TD50 was 77 mg/kg (neurotoxicity; mouse; intraperitoneal).
With CCCCCCCCCCCCCCCC(=O)NCCCC[C@H](NC(=O)CNC(=O)[C@H](CO)NC(=O)CNC(=O)[C@@H](NC(=O)[C@@H](NC(=O)[C@@H](NC(=O)[C@H](CO)NC(=O)[C@H](CO)NC(=O)[C@H](CCC(N)=O)NC(=O)[C@H](Cc1c[nH]cn1)NC(=O)[C@H](Cc1c[nH]c2ccccc12)NC(=O)[C@H](CC(N)=O)NC(=O)CNC(=O)[C@@H](NC(=O)[C@H](CO)NC(=O)[C@H](CC(=O)O)NC(=O)[C@H](CC(C)C)NC(=O)[C@@H](NC(=O)[C@H](CCCCN)NC(=O)[C@H](CC(N)=O)NC(=O)[C@H](CO)NC(=O)[C@H](CCCNC(=N)N)NC(=O)[C@H](CCCNC(=N)N)NC(=O)[C@@H](NC(=O)[C@H](Cc1c[nH]c2ccccc12)NC(=O)[C@H](CCC(=O)O)NC(=O)[C@H](CCCCN)NC(=O)[C@H](CO)NC(=O)[C@H](CCC(=O)O)NC(=O)[C@H](CCC(=O)O)NC(=O)[C@H](CC(C)C)NC(=O)[C@H](CC(=O)O)NC(=O)[C@H](CO)NC(=O)[C@H](CCCCN)NC(=O)[C@@H](NC(=O)[C@H](CCCCN)NC(=O)[C@H](CC(N)=O)NC(=O)[C@H](CC(C)C)NC(=O)[C@@H](N)C(C)C)[C@@H](C)CC)[C@@H](C)CC)[C@@H](C)CC)[C@@H](C)CC)[C@@H](C)O)[C@@H](C)O)[C@@H](C)CC)C(=O)O the solubility was 70 ± 20 µg/mL (≈ 14.6 µM) (PBS).
Under “apparent volume of distribution”, Cc1cc(N(CCCl)CCCl)ccc1C(=O)O is recorded as 562 L/kg (mouse CD2F1; iv, 20 mg/kg of bendamustine).
With CCCSc1nc(N[C@@H]2C[C@H]2c2ccc(F)c(F)c2)c2nnn([C@@H]3C[C@H](OCCO)[C@@H](O)[C@H]3O)c2n1 the Tmax was 12 h (STEMI patients, plasma; oral, 180 mg loading dose, median, added: morphine).
The logD of N#Cc1c(-c2ccc(-c3no[n+]([O-])c3C#N)s2)no[n+]1[O-] is reported as 2.92 (octanol/buffer).
CC(C)C[C@H](NC(=O)[C@@H]1C[C@@H](O)CN1C(=O)[C@H](Cc1ccccc1)NC(=O)[C@H](CO)NC(=O)[C@H](C)NC(=O)[C@H](Cc1ccccc1)NC(=O)[C@@H](NC(=O)[C@H](CCC(=O)O)NC(=O)[C@H](Cc1c[nH]cn1)NC(=O)[C@@H](NC(=O)[C@@H](NC(=O)[C@H](CCC(N)=O)NC(=O)[C@H](C)NC(=O)[C@@H](N)CC(=O)O)[C@@H](C)O)C(C)C)C(C)C)C(=O)N[C@@H](CC(=O)O)C(=O)N[C@@H](CO)C(=O)N[C@@H](CC(=O)O)C(=O)NCC(=O)N[C@H]1CSSC[C@@H]2NC(=O)[C@H](C)NC(=O)[C@@H]3CCCN3C(=O)[C@H](CC(N)=O)NC(=O)[C@H](Cc3c[nH]c4ccccc34)NC(=O)[C@H](CSSC[C@@H](C(N)=O)NC(=O)[C@H](Cc3ccc(O)cc3)NC(=O)[C@H](Cc3c[nH]cn3)NC(=O)[C@H](CCCCN)NC(=O)CNC2=O)NC1=O — result for “degradation to non-isomer products”: 21.9 ± 2.33% (RP-HPLC; mouse serum 25%; 50 µM, 6 h, 37 °C).

Excerpt of the above:
The Cmax of O=C(Nc1ccccc1)c1cc([N+](=O)[O-])ccc1Cl is reported as 127 ng/mL (LC-MS/MS; Sprague-Dawley rat, male, plasma; intravenous, 2.5 mg/kg).
C=C(C)[C@@H]1[C@H]2OC(=O)[C@@H]1[C@]1(O)C[C@H]3O[C@]34C(=O)O[C@H]2[C@]14C — result for “peak brain concentration”: 351 ± 106 nM (male NIH-NCI Swiss mice, brain; intraperitoneal, 2 mg/kg, 20 min).
